Experimental data from different studies.
A part holds a random share of what one study measured. Changes are numbered by the printed parent chain.

Block 1
Target: CCND3, cyclin fold, Cln2 fusion (human)
Technique: yeast growth competition, sequencing
Sample: yeast
Setting: weak parent motif
Baseline: not given
Direction: higher = stronger binding
Endpoint: normalised enrichment score
Parent: viral docking peptide; TSVRRALFTGGSD
T9L: 0.0761
V3D: -0.0739
L7W: 0.372
G10A: 0.161
R5F: 0.0448
T1A: 0.168
R5P: -0.138
A6D: -0.0195
A6G: 0.309
V3Y: 0.24
F8S: 0.257
G11E: -0.285
R4M: 0.0163
T9H: 0.266
R4A: 0.0437

Block 2
Target: TAR DNA-binding protein 43, full length, His tag (TARDBP, Homo sapiens, UniProt Q13148, residues 1-414)
Technique: RNA Bind-n-Seq
Molecule type: RNA
Sample: in vitro
Tested at: 20 nM
Setting: 6-mer, flanks averaged, single round
Added: 150 mM KCl
Baseline: input library
Direction: higher = stronger binding
Endpoint: 6-mer enrichment (R)
AGAUAG: 0.875
ACCUAU: 0.595
CAGGUG: 1.51
GGGCAC: 2.31
UCAAGA: 0.651
AUCUAA: 0.57
UGGCCG: 1.36
CCGAAA: 0.643

Block 3
Target: tungstate, free oxyanion
Technique: microfluidic competitive inhibition
Sample: in vitro, cell-free expressed
Tested at: not given
Setting: derived from inhibition constants, unchanged parent 2230 nM
Direction: lower = stronger binding
Endpoint: oxyanion analog dissociation constant
Parent: PafA, mature enzyme, eGFP fusion (Elizabethkingia meningoseptica, UniProt Q9KJX5); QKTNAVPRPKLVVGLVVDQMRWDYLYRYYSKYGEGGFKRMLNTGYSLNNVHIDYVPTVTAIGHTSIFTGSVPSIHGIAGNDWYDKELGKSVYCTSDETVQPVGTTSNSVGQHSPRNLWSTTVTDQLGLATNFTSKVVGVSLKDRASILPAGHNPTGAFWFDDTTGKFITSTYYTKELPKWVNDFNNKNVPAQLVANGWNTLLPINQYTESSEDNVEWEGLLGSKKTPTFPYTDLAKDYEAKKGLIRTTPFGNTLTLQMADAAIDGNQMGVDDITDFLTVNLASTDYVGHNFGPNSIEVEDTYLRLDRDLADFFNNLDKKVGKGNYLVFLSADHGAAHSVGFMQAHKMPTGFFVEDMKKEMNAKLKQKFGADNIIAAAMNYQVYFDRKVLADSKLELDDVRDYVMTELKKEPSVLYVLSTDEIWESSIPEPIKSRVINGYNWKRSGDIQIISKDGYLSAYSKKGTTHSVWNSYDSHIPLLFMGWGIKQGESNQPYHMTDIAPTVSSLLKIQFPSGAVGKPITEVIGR
G517A: 1.15 µM
L126G: 0.968 µM
F250G: 1.14 µM
H289G: 11.1 µM
T105V: 2.16 µM
Y83V: 1.8 µM
D271V: 1.63 µM
N361V: 1.94 µM
K387G: 2.17 µM
S392G: 2.08 µM
L256V: 2.77 µM
Y231V: 2.03 µM
G454A: 2.07 µM
L281G: 1.53 µM
V327A: 2.07 µM

Block 4
Target: NFE2, bZIP domain (human)
Technique: DHFR protein complementation
Sample: yeast
Setting: single substitutions, most at no-binding floor
Baseline: wild-type JUN-FOS pair
Direction: higher = stronger binding
Endpoint: binding fitness
Parent: JUN, bZIP domain (human); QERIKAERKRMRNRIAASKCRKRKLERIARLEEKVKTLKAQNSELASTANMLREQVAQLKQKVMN; partner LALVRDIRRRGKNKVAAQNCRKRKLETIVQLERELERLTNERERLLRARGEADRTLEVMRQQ
K36V: -1.43 natural log
S47E: -1.38 natural log
I28E: -1.38 natural log
E44N: -1.49 natural log
K34A: -1.48 natural log
A49W: -1.36 natural log
L52M: -1.31 natural log
A57V: -1.42 natural log

For quick reference, copied from above (block 3):
D271V: 1.63 µM
N361V: 1.94 µM
K387G: 2.17 µM
S392G: 2.08 µM
L256V: 2.77 µM
Y231V: 2.03 µM
